{"data": "Experimental data gathered from unrelated publications", "B1": "GapA (Pseudomonas putida, UniProt Q88P44); chain MTLRIAINGFGRIGRNVLRALYTQGYRQDLQVVAINDLGDSTMNAHLLKYDSVHGTFDATVEADHESLTVNGDRIAVSAIRNPAELPWKAEAIDVVFECTGLFTDRAKAAAHLAAGAGKVIVSAPAKGADATVVYGVNHDILRASHQIISNASCTTNCLAPIAQVLHREFGIEQGLMTTIHAYTNDQVLTDVYHSDPYRARSATQSMIPSKTGAAEAVGLVLPELAGKLTGMAVRVPVINVSLVDLTVNLKREATAEQVNQLFLEASKHSKVLGYNALPLVSCDFNHNPLSSIFDANHTRANGRMLKVLAWYDNEWGFSNRMLDNCLALHRAG", "B2": "SLCO1B1 (Homo sapiens, UniProt Q9Y6L6); chain MDQNQHLNKTAEAQPSENKKTRYCNGLKMFLAALSLSFIAKTLGAIIMKSSIIHIERRFEISSSLVGFIDGSFEIGNLLVIVFVSYFGSKLHRPKLIGIGCFIMGIGGVLTALPHFFMGYYRYSKETNINSSENSTSTLSTCLINQILSLNRASPEIVGKGCLKESGSYMWIYVFMGNMLRGIGETPIVPLGLSYIDDFAKEGHSSLYLGILNAIAMIGPIIGFTLGSLFSKMYVDIGYVDLSTIRITPTDSRWVGAWWLNFLVSGLFSIISSIPFFFLPQTPNKPQKERKASLSLHVLETNDEKDQTANLTNQGKNITKNVTGFFQSFKSILTNPLYVMFVLLTLLQVSSYIGAFTYVFKYVEQQYGQPSSKANILLGVITIPIFASGMFLGGYIIKKFKLNTVGIAKFSCFTAVMSLSFYLLYFFILCENKSVAGLTMTYDGNNPVTSHRDVPLSYCNSDCNCDESQWEPVCGNNGITYISPCLAGCKSSSGNKKPIVFYNCSCLEVTGLQNRNYSAHLGECPRDDACTRKFYFFVAIQVLNLFFSALGGTSHVMLIVKIVQPELKSLALGFHSMVIRALGGILAPIYFGALIDTTCIKWSTNNCGTRGSCRTYNSTSFSRVYLGLSSMLRVSSLVLYIILIYAMKKKYQEKDINASENGSVMDEANLESLNKNKHFVPSAGADSETHC", "B3": "ART1 (Homo sapiens, UniProt P52961); chain QSHPITRRDLFSQEIQLDMALASFDDQYAGCAAAMTAALPDLNHTEFQANQVYADSWTLASSQWQERQARWPEWSLSPTRPSPPPLGFRDEHGVALLAYTANSPLHKEFNAAVREAGRSRAHYLHHFSFKTLHFLLTEALQLLGSGQRPPRCHQVFRGVHGLRFRPAGPRATVRLGGFASASLKHVAAQQFGEDTFFGIWTCLGAPIKGYSFFPGEEEVLIPPFETFQVINASRLAQGPARIYLRALGKHSTYNCEYIKDKKCKSGPCHLDNS", "B4": "enzyme S252E (Schizosaccharomyces pombe, UniProt P78804); chain MSTPYEPEFQQAYKEIVGSIESSKLFEVHPELKRVLPIISIPERVLEFRVTWEDDKGNCRVNTGYRVQFNSALGPYKGGLRFHPSVNLSILKFLGFEQIFKNALTGLPMGGGKGGSDFDPKGKSDNEIRRFSQAFMRQLFRYIGPQTDVPAGDIGVTGFVVMHMFGEYKRLRNEYSGVVTGKHMLTGGSNIRPEATGYGVVYYVKHMIEHRTKGAETLKGKRVAISGSGNVAQYAALKCIQEGAIVKSISDEKGVLIAKTAEGLVPEEIHEIMALKEKRASIADSASLCKKHHYIAGARPWTNVGEIDIALPCATQNEVSGEEAAALIKQGCRYVAEGSNMGSSAEAVEVFEKSRASGEGCWLAPGKAANAGGVAVSGLEMAQNAQFSTWTHAEVDAKLAGIMQNIFEQSTDVASKYCDSGSNNIPSLVDGANIAGFLKVATAMQAVGDWW", "B5": "ispG (Escherichia coli, UniProt P62620); chain MHNQAPIQRRKSTRIYVGNVPIGDGAPIAVQSMTNTRTTDVEATVNQIKALERVGADIVRVSVPTMDAAEAFKLIKQQVNVPLVADIHFDYRIALKVAEYGVDCLRINPGNIGNEERIRMVVDCARDKNIPIRIGVNAGSLEKDLQEKYGEPTPQALLESAMRHVDHLDRLNFDQFKVSVKASDVFLAVESYRLLAKQIDQPLHLGITEAGGARSGAVKSAIGLGLLLSEGIGDTLRVSLAADPVEEIKVGFDILKSLRIRSRGINFIACPTCSRQEFDVIGTVNALEQRLEDIITPMDVSIIGCVVNGPGEALVSTLGVTGGNKKSGLYEDGVRKDRLDNNDMIDQLEARIRAKASQLDEARRIDVQQVEK", "note": "Lines come from different studies, so protocols differ."}
{"Molecule": "QGRWDHETIV", "target or system": "human MAGI1-2/6 PDZ construct (MBP fusion)", "test": "automated holdup", "system": "peptide, crude extract", "setting": "concentration not given, corrected by standard peak, unit not given", "scale": "baseline: biotin control resin, higher = stronger binding", "endpoint": "binding intensity", "result": 0.17}
{"Molecule": "B1 (GapA)", "target or system": "O=C[C@H](O)COP(=O)(O)O", "test": "steady-state kinetics", "setting": "with: NAD+", "endpoint": "Km", "result": "440 µM"}
{"Molecule": "B2 (SLCO1B1)", "target or system": "C=C[C@@H]1C[C@]1(NC(=O)[C@@H]1C[C@@H]2CN1C(=O)[C@H](C(C)(C)C)NC(=O)O[C@@H]1C[C@H]1CCCCCc1nc3ccc(OC)cc3nc1O2)C(=O)NS(=O)(=O)C1CC1", "test": "steady-state kinetics", "setting": "pH 7.4, 37 °C", "endpoint": "Km", "result": "0.17 µM"}
{"Molecule": "B3 (ART1)", "target or system": "COC(=O)[C@@H](N)CCCNC(=N)N", "test": "steady-state kinetics", "setting": "pH 7.5, 25 °C, HEPES 50 mM, with: saturating NAD+", "endpoint": "Km", "result": "1300 µM"}
{"Molecule": "enzyme (Lactiplantibacillus plantarum, UniProt Q06115)", "target or system": "C[C@H](CCC(=O)NCC(=O)O)[C@H]1CC[C@H]2[C@@H]3[C@H](O)C[C@@H]4C[C@H](O)CC[C@]4(C)[C@H]3C[C@H](O)[C@]12C", "test": "steady-state kinetics", "setting": "pH 6.2, 37 °C", "endpoint": "Km", "result": "1300 µM"}
{"Molecule": "B4 (enzyme S252E)", "target or system": "NC(=O)C1=CN([C@@H]2O[C@H](COP(=O)(O)OP(=O)(O)OC[C@H]3O[C@@H](n4cnc5c(N)ncnc54)[C@H](O)[C@@H]3O)[C@@H](O)[C@H]2O)C=CC1", "test": "steady-state kinetics", "setting": "pH 7, 30 °C, apparent", "endpoint": "Km", "result": "21000 µM"}
{"Molecule": "enzyme (Spiroplasma melliferum, UniProt A0ABF7PLM3)", "target or system": "Nc1nc2c(ncn2[C@@H]2O[C@H](COP(=O)(O)OP(=O)(O)OP(=O)(O)O)[C@@H](O)[C@H]2O)c(=O)[nH]1", "test": "steady-state kinetics", "setting": "pH 6.5, 30 °C, with: MgCl2 5 mM", "endpoint": "Km", "result": "234 µM"}
{"Molecule": "GSGAGHETIV", "target or system": "human MAGI1-2/6 PDZ construct (MBP fusion)", "test": "automated holdup", "system": "peptide, crude extract", "setting": "concentration not given, corrected by standard peak, unit not given", "scale": "baseline: biotin control resin, higher = stronger binding", "endpoint": "binding intensity", "result": 0.0717}
{"Molecule": "B5 (ispG)", "target or system": "C[C@]1(CO)O[C@@H]1COP(=O)(O)OP(=O)(O)O", "test": "steady-state kinetics", "endpoint": "Km", "result": "119 µM"}
{"Molecule": "spt R378K (Sphingomonas paucimobilis)", "target or system": "CCCCCCCCCCCCCCCC(=O)SCCNC(=O)CCNC(=O)[C@H](O)C(C)(C)COP(=O)(O)OP(=O)(O)OC[C@H]1O[C@@H](n2cnc3c(N)ncnc32)[C@H](O)[C@@H]1OP(=O)(O)O", "test": "steady-state kinetics", "setting": "with: PLP", "endpoint": "Km", "result": "24 µM"}
{"Molecule": "gdh E198G/N192S/N97F (Bacillus subtilis)", "target or system": "NC(=O)c1ccc[n+]([C@@H]2O[C@H](COP(=O)(O)OP(=O)(O)OC[C@H]3O[C@@H](n4cnc5c(N)ncnc54)[C@H](O)[C@@H]3O)[C@@H](O)[C@H]2O)c1", "test": "steady-state kinetics", "setting": "pH 7, 50 °C", "endpoint": "Km", "result": "250 µM"}
{"Molecule": "enzyme (Myxococcus xanthus, UniProt Q1D030)", "target or system": "CC(=O)O", "test": "steady-state kinetics", "setting": "pH 8, 32 °C, apparent", "endpoint": "Km", "result": "9450 µM"}
{"note": "Repeated from above:"}
{"Molecule": "gdh E198G/N192S/N97F (Bacillus subtilis)", "target or system": "NC(=O)c1ccc[n+]([C@@H]2O[C@H](COP(=O)(O)OP(=O)(O)OC[C@H]3O[C@@H](n4cnc5c(N)ncnc54)[C@H](O)[C@@H]3O)[C@@H](O)[C@H]2O)c1", "test": "steady-state kinetics", "setting": "pH 7, 50 °C", "endpoint": "Km", "result": "250 µM"}
{"Molecule": "B5 (ispG)", "target or system": "C[C@]1(CO)O[C@@H]1COP(=O)(O)OP(=O)(O)O", "test": "steady-state kinetics", "endpoint": "Km", "result": "119 µM"}
